Assay results collected from several papers.
A part holds a random share of what one study measured.

Series 1
Target: Replicase polyprotein 1ab, main protease (rep, Severe acute respiratory syndrome coronavirus 2, UniProt P0DTD1)
Observed: enzyme activity
Action: inhibitor
Concentration: 20 µM
Setting: hit confirmation, no DTT
| SMILES | inhibition [%] |
| --- | --- |
| CCN(CC)C(=S)[S-].O.O.O.[Na+] | 89.9 |
| CCN(CC)C(=S)SSC(=S)N(CC)CC | 99.9 |
| COc1ccc2[nH]c([S@@+]([O-])Cc3ncc(C)c(OC)c3C)nc2c1 | 99.1 |

Series 2
Target: Interferon regulatory factor 3, full length, phosphomimetic (IRF3, Homo sapiens, UniProt Q14653, residues 1-427, S386D/S396D/S398D/S402D/T404D/S405D)
Technique: protein-binding microarray
Form: double-stranded DNA, one strand shown
Matrix: in vitro
Concentration: 2540 nM top
Setting: 60-bp whole probe
Added: salmon DNA 0.4 mg/ml
Reference: random background probes
Reading: higher = stronger binding
All sequences stand within: GCCTAGCAC … GTCTTGATTCGCTTGACGCTGCTG
Residues (chain): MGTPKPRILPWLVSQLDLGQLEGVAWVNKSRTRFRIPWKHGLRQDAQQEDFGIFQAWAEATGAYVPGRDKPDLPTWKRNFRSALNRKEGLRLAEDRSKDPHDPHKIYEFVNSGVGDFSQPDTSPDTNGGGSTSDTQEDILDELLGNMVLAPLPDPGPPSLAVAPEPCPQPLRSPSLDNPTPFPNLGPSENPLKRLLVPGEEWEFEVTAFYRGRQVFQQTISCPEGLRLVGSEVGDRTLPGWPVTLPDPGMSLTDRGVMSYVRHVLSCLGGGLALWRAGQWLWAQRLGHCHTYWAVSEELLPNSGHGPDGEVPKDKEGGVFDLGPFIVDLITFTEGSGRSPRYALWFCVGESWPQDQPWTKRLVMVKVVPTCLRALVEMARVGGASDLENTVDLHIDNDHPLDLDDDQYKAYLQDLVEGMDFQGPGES
| Oligonucleotide | fitted relative affinity |
| --- | --- |
| TAATGCTTCTGTATTCATGAGTGCTAG | 0.167 z-score |
| TCATTTCTACGTCTGATACTGTGCTAG | 1.93 z-score |
| CTTCATGTTGCTCTCCGGGGGTGCTAG | 0.158 z-score |
| TTAGATTTCGTGTATCGATTAGTGCTA | 1.02 z-score |
| GACAGTCTCGGACTGGGGACGTGCTAG | -0.141 z-score |
| TCATGTCTGGGCATTTTTACTGTGCTA | -0.419 z-score |
| GACGGTTTCGACTTTCGGGAGGTGCTA | 4.02 z-score |
| GACGCTATCAGTATCGAGACGTGCTAG | 1.17 z-score |

Series 3
Target: PABPC1L2, full length, GST fusion (mouse, UniProt A0ABA7IW68)
Technique: RNAcompete
Form: RNA
Matrix: in vitro
Concentration: 20 nM
Setting: 7-mer, probes averaged, single round
Reference: mean of 7-mers
Reading: higher = stronger binding
Construct (chain): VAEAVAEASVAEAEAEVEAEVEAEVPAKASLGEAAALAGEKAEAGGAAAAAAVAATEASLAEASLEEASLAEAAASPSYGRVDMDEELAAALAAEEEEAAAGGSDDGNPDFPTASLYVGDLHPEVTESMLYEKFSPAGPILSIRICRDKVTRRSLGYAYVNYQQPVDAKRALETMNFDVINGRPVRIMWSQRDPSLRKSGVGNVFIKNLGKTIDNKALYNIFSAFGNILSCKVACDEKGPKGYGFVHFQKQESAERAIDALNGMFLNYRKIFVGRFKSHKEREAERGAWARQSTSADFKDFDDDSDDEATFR
| Oligonucleotide | 7-mer Z-score |
| --- | --- |
| CCGGUAU | -0.195 |
| GUCGGAG | -0.101 |
| UGCAGUC | -0.206 |
| CCGUGCC | -0.28 |
| UACUGGC | -0.05 |
| GGUUACA | -0.0047 |
| GAGCUUG | -0.213 |
| GUAAGCG | -0.0844 |

Series 4
Target: RING finger protein unkempt homolog, zinc fingers 1-6, GST-SBP tag (UNK, Homo sapiens, UniProt Q9C0B0, residues 30-357)
Chain of UniProt Q9C0B0 (30-357, looked up): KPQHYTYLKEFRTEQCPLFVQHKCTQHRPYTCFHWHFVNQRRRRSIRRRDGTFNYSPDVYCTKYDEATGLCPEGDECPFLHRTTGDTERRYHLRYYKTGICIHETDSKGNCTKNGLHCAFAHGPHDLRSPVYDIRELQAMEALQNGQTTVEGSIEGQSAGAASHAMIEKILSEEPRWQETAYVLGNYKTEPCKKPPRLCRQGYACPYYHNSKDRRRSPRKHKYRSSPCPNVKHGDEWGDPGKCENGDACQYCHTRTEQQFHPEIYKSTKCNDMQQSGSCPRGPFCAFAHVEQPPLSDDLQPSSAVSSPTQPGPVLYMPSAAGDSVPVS
Technique: RNA Bind-n-Seq
Form: RNA
Matrix: in vitro
Concentration: not given
Setting: RNA with constant flanks, human and mouse sites, ends assumed
Reference: input RNA pool
Reading: higher = stronger binding
| Oligonucleotide | bound/input enrichment [ratio] |
| --- | --- |
| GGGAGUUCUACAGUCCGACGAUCUUUUUAAUAUUAAACUGAAUGAAUAUAAUACUGAGUAACCUAAAAUGAAAGUUUUAAAAAGAUUUAUAUCCACUGAGAACACUGGCCUUAUAUUAAGGAUGAUAUUACAGUUACAGGUUUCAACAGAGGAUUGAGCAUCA | 0.549 |
| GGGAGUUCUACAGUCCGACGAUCUCCAAAAGCUAUGUGAAAUUACGAGACUUUGUGCUUGUGAAGCUUUGUCAAGAUUUGCCCUGUUUUUCCCGGGAAAAAUUAAUGCAAGGAUUCAAUGAAGAUAUGGCGAUAGAGGCACAACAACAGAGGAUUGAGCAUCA | 0.114 |
| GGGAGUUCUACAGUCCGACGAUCGAAGAAGCACCAAGCACUUCAGGAAUGGGUUUCCAUGCUCCAAAAAUUGGUAGCAAUGGUGUCGAGAUGGCAGCCAAAUUUCCCAGUGGUUCUCAGAGGGCGAGAGUAGUGAAUACAGACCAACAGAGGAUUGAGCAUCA | 0.239 |
| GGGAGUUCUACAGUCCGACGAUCAAGUGGUUCCUUAGGACUCACUCAGGUGCUGGUACUGACCCACUAAUCUGCCAUAGGCCCAGAAAUAUCUUCAGAAGUACGUGAGUUGUUCCUCAGGAAUAGAUUUUUCAUAAAGCAGAACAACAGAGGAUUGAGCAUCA | 0.313 |
| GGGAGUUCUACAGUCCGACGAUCACCCCCUUCGCCGGUACCGGGCUCUUCUUCGGAAAGAUGUCGGACACCGCAGUGGCUGACACUAGGCGCCUUAACUCGAAGCCCCAAGACCUGACCGACGCUUACGGGCCGCCCAGUAACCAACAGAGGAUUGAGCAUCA | 0.227 |
| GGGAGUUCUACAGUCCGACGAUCUUAUGUCUUAUAAUCCUGCAUCACUUCCAUCCUAUCCAGUCAUAUCUAAUGUAGAAAAAUUAGUUUCCAGUGAAAGUAAUAUGUAGUGCUUUUAUGAUAUUUGUGUGCAAUAUCCCCUCUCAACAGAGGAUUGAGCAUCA | 18.1 |
| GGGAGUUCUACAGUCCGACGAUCUUUGUCACGUGCCCGGAUAUAGGAAGUGUUGGGGGAACGGCCGCUUCCCGUUCAACGCUUUAUUGAGGGGCGUAUCCUAGUGGCCCCCAUCCGGUCUCCGUUUUGGAAGACCCGCCUCGGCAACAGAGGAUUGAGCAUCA | 0.141 |
| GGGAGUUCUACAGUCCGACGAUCGCAUCCCCAAAUAAUCCCCCCCCCUCUCUCUCUCUCACAUACACACACACACACACACACACACACACACACACACACGCACACACAAACACAUUCCUCUAGUGUCUUUUGCCUUUAAAACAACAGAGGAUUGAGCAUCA | 1.32 |

Series 5
Cell line: HEK-293T
Observed: pseudovirus infection
Technique: FDA-approved drug library screen
Organism: VSV pseudotyped with SARS-CoV-2 spike
Concentration: 10 µM
Time: 16 h
Reference: vehicle-treated
| SMILES | GFP-positive cells [%] |
| --- | --- |
| CCCc1nc(C)c2c(=O)[nH]c(-c3cc(S(=O)(=O)N4CCN(CC)CC4)ccc3OCC)nn12 | 100 |
| NS(=O)(=O)c1cc2c(cc1Cl)N=CNS2(=O)=O | 105 |
| C[N+]1(C)[C@@H]2CC[C@H]1C[C@@H](OC(=O)C(O)c1ccccc1)C2 (some centres unmarked) | 112 |
| CC(C)[N+](C)(CCOC(=O)C1c2ccccc2Oc2ccccc21)C(C)C | 95.9 |

Series 6
Target: Replicase polyprotein 1ab, polymerase (rep, Severe acute respiratory syndrome coronavirus 2, UniProt P0DTD1)
Observed: enzyme activity
Action: inhibitor
Concentration: 20 µM
| SMILES | inhibition [%] |
| --- | --- |
| Cc1cc(Nc2cc(C)c(C#N)c(N[C@@H](C)CCCC(C)(C)O)n2)n[nH]1 | -1.48 |
| COc1ccc(-c2ccc3cc(C(=O)O)ccc3c2)cc1[C@]12C[C@H]3C[C@H](C[C@H](C3)C1)C2 | 29.6 |
| CCC(=O)NC[C@H](Cc1ccc(OCCc2nc(-c3ccccc3)oc2C)cc1)N/C(C)=C\C(=O)c1ccc(C(F)(F)F)cc1 | -3.43 |
| CC(=O)NNC(=O)N1Cc2ccccc2Oc2ccc(Cl)cc21 | -8.2 |
| COc1cc(N2CCN(C)CC2)ccc1Nc1nccc(-c2cn(C)c3cnccc23)n1 | 19.8 |
| CC(=O)N[C@H](Cc1ccc2ccccc2c1)C(=O)N[C@H](Cc1ccc(Cl)cc1)C(=O)N[C@H](Cc1cccnc1)C(=O)N[C@@H](CO)C(=O)N[C@@H](Cc1ccc(NC(=O)[C@@H]2CC(=O)NC(=O)N2)cc1)C(=O)N[C@H](Cc1ccc(NC(N)=O)cc1)C(=O)N[C@@H](CC(C)C)C(=O)N[C@@H](CCCCNC(C)C)C(=O)N1CCC[C@H]1C(=O)N[C@H](C)C(N)=O | 53.5 |
| COc1ccc2cc3[n+](cc2c1OC)CCc1cc2c(cc1-3)OCO2 | 4.99 |
| CC1=C(CC(=O)O)c2cc(F)ccc2/C1=C\c1ccc([S+](C)[O-])cc1 (centres unmarked) | 29.4 |
| CC(=O)Nc1ccc(Cc2ccc(NC(C)=O)cc2)cc1 | -2.97 |
| CC(C)=CCC/C(C)=C/CC/C(C)=C/C=C/C(C)=C/C(=O)O | 2.35 |
| Cc1cc(OCc2nnc(SC3CCCC3)n2-c2cccnc2)ccc1-c1ccc(S(C)(=O)=O)cc1 | -0.11 |
| COC(=O)Nc1nc2cc([S+]([O-])c3ccccc3)ccc2[nH]1 (centres unmarked) | -0.16 |
| CC(C(=O)O)c1cccc(Oc2ccccc2)c1 (centres unmarked) | 22.2 |
| COc1cccc2c1c(O)c(C(=O)N(C)c1ccc(C(F)(F)F)cc1)c(=O)n2C | -5.65 |
| O=C1C2CC3CC1CC(O)(C3)C2 | 0.92 |
| COc1ccc(COc2cc3oc(=O)c4cc(C(C)O)ccc4c3cc2OC)cc1 (centres unmarked) | 2.34 |
| CC(CN1c2ccccc2Sc2ccccc21)N(C)C (centres unmarked) | 14 |
| Cc1nc(Nc2ccc(F)cc2)nc(N2CCc3ccccc3C2C)c1C (centres unmarked) | 13.4 |
| CCOP(=S)(OCC)Oc1nc(Cl)c(Cl)cc1Cl | 1.83 |
| Oc1cc2c(cc1O)C(Cc1cccc3ccccc13)NCC2 (centres unmarked) | 1.25 |
| CS/C(N)=C(C#N)/C(C#N)=C(\N)SC | 2.74 |
| COc1ccc(CCN(C)CCc2ccc(OC)c(OC)c2)cc1OC | 2.15 |
| OCCCCO | -7.83 |
| CN1CCCN=C1/C=C/c1cccs1 | 4.06 |
| COc1cc(/C=C/C(=O)O)ccc1O | -4.5 |

Some of these lines once more (series 6):
| SMILES | inhibition [%] |
| --- | --- |
| CC(=O)N[C@H](Cc1ccc2ccccc2c1)C(=O)N[C@H](Cc1ccc(Cl)cc1)C(=O)N[C@H](Cc1cccnc1)C(=O)N[C@@H](CO)C(=O)N[C@@H](Cc1ccc(NC(=O)[C@@H]2CC(=O)NC(=O)N2)cc1)C(=O)N[C@H](Cc1ccc(NC(N)=O)cc1)C(=O)N[C@@H](CC(C)C)C(=O)N[C@@H](CCCCNC(C)C)C(=O)N1CCC[C@H]1C(=O)N[C@H](C)C(N)=O | 53.5 |
| COc1ccc2cc3[n+](cc2c1OC)CCc1cc2c(cc1-3)OCO2 | 4.99 |
| CC1=C(CC(=O)O)c2cc(F)ccc2/C1=C\c1ccc([S+](C)[O-])cc1 (centres unmarked) | 29.4 |
| CC(=O)Nc1ccc(Cc2ccc(NC(C)=O)cc2)cc1 | -2.97 |
| CC(C)=CCC/C(C)=C/CC/C(C)=C/C=C/C(C)=C/C(=O)O | 2.35 |
| Cc1cc(OCc2nnc(SC3CCCC3)n2-c2cccnc2)ccc1-c1ccc(S(C)(=O)=O)cc1 | -0.11 |
| COC(=O)Nc1nc2cc([S+]([O-])c3ccccc3)ccc2[nH]1 (centres unmarked) | -0.16 |
| CC(C(=O)O)c1cccc(Oc2ccccc2)c1 (centres unmarked) | 22.2 |
| COc1cccc2c1c(O)c(C(=O)N(C)c1ccc(C(F)(F)F)cc1)c(=O)n2C | -5.65 |
